Measured values pooled from the literature.
Protocols differ between the studies behind these lines.
mcmA: mcmA (Methylobacterium extorquens, UniProt C5AV67)
B1: FBLN5 207-287 (Homo sapiens, UniProt Q9UBX5); chain DVNECATENPCVQTCVNTYGSFICRCDPGYELEEDGVHCSDMDECSFSEFLCQHECVNQPGTYFCSCPPGYILLDDNRSCQ
B2: DUSP23 (Homo sapiens, UniProt Q9BVJ7); chain MGVQPPNFSWVLPGRLAGLALPRLPAHYQFLLDLGVRHLVSLTERGPPHSDSCPGLTLHRLRIPDFCPPAPDQIDRFVQIVDEANARGEAVGVHCALGFGRTGTMLACYLVKERGLAAGDAIAEIRRLRPGSIETYEQEKAVFQFYQRTK
B3: Smoc2 (UniProt Q8CD91); sequence looked up; chain QKFSALTFLRVDQDKDRDCSLDCPSSPQKPLCASDGRTFLSRCEFQRAKCKDPQLEIAHRGNCKDVSRCVAERKYTQEQARKEFQQVFIPECNDDGTYSQVQCHSYTGYCWCVTPNGRPISGTAVAHKTPRCPGSINEKVPQREGAGKADDAAAPALETQPQGDEEDIASRYPTLWTEQVKSRQNKTNKNSASSCDQEHQSALEEAKQPKNDNVVIPECAHGGLYKPVQCHPSTGYCWCVLVDTGRPIPGTSTRYEQPKCDNTARAHPAKARDLYKNRPLQGCPGAKKHEFLTSVLDALSTDMVHAVSDPSSSSGRLSEPDPSHTLEERVVHWYFKLLDKNSSGDIGKKEIKPFKRFLRKKSKPKKCVKKFVEYCDMNNDKSITVQELMGCLGVTREEGKANTRKRHTPRGNAESSSSNRQPRKQG
B4: bfd 1-73 L5A/C43S (Pseudomonas aeruginosa, UniProt Q9HY80); chain MYVCACQGVTDNQIRDAIYEGCCSYREVREATGVGTQCGKCASLAKQVVRETLNDLQSAQPVPAFGTTAFVAA
B5: ICAM1 28-485 (Homo sapiens, UniProt P05362); sequence looked up; chain QTSVSPSKVILPRGGSVLVTCSTSCDQPKLLGIETPLPKKELLLPGNNRKVYELSNVQEDSQPMCYSNCPDGQSTAKTFLTVYWTPERVELAPLPSWQPVGKNLTLRCQVEGGAPRANLTVVLLRGEKELKREPAVGEPAEVTTTVLVRRDHHGANFSCRTELDLRPQGLELFENTSAPYQLQTFVLPATPPQLVSPRVLEVDTQGTVVCSLDGLFPVSEAQVHLALGDQRLNPTVTYGNDSFSAKASVSVTAEDEGTQRLTCAVILGNQSQETLQTVTIYSFPAPNVILTKPEVSEGTEVTVKCEAHPRAKVTLNGVPAQPLGPRAQLLLKATPEDNGRSFSCSATLEVAGQLIHKNQTRELRVLYGPRLDERDCPGNWTWPENSQQTPMCQAWGNPLPELKCLKDGTFPLPIGESVTVTRDLEGTYLCRARSTQGEVTRKVTVNVLSPRYEIVIIT
B6: fliP mature (Salmonella enterica, UniProt P54700); sequence looked up; chain QLPGLISQPLAGGGQSWSLSVQTLVFITSLTFLPAILLMMTSFTRIIIVFGLLRNALGTPSAPPNQVLLGLALFLTFFIMSPVIDKIYVDAYQPFSEQKISMQEALDKGAQPLRAFMLRQTREADLALFARLANSGPLQGPEAVPMRILLPAYVTSELKTAFQIGFTIFIPFLIIDLVIASVLMALGMMMVPPATIALPFKLMLFVLVDGWQLLMGSLAQSFYS
B7: protein 1-329 D182A (Methylobacterium extorquens, UniProt C5AP93); chain MSATLPDMDTLRERLLAGDRAALARAITLAESRRADHRAAVRDLIDAVLPQTGRAIRVGITGVPGVGKSTTIDALGSLLTAAGHKVAVLAVDPSSTRTGGSILGDKTRMARLAIDRNAFIRPSPSSGTLGGVAAKTRETMLLCEAAGFDVILVETVGVGQSETAVADLTDFFLVLMLPGAGAELQGIKKGILELADMIAVNKADDGDGERRASAAASEYRAALHILTPPSATWTPPVVTISGLHGKGLDSLWSRIEDHRSKLTATGEIAGKRREQDVKWMWALVHERLHQRLVGSAEVRQATAEAERAVAGGEHSPAAGADAIATLIGL
B8: protein 1-329 E183A (Methylobacterium extorquens, UniProt C5AP93); chain MSATLPDMDTLRERLLAGDRAALARAITLAESRRADHRAAVRDLIDAVLPQTGRAIRVGITGVPGVGKSTTIDALGSLLTAAGHKVAVLAVDPSSTRTGGSILGDKTRMARLAIDRNAFIRPSPSSGTLGGVAAKTRETMLLCEAAGFDVILVETVGVGQSETAVADLTDFFLVLMLPGAGDALQGIKKGILELADMIAVNKADDGDGERRASAAASEYRAALHILTPPSATWTPPVVTISGLHGKGLDSLWSRIEDHRSKLTATGEIAGKRREQDVKWMWALVHERLHQRLVGSAEVRQATAEAERAVAGGEHSPAAGADAIATLIGL

For `VPST peptide fragment (Homo sapiens)`, the IC50 was > 2500 µM (ITGA4/ITGB1 (Homo sapiens); competition of cell adhesion, competitor, cell adhesion assay; Jurkat).
Under binding, `B1 (FBLN5 207-287)` is recorded as “binds” (FBN1 31-489 (Homo sapiens, UniProt P35555); ELISA).
For `HOOK3, Alexa Fluor 488 on HaloTag (Homo sapiens, UniProt Q86VS8)`, binding read “binds” (KIF1C, TMR on SNAP tag (Homo sapiens, UniProt O43896); TIRF colocalisation; together with: Mg-ATP 1 mM).
`B2 (DUSP23)`: binding “binds” (GCM1 167-349, pS269/pS275 (Homo sapiens, UniProt Q9NP62); pull-down; 30 min, pH 7.5, 30 °C, together with: PKA 0.5 U).
The IC50 of `HIP-4.39` is reported as 0.24 µM (HLA-DRA/HLA-DRB1*04:01 (Homo sapiens); competition with biotinylated peptide, competitor, competition binding assay).
Under “fold reduction of binding affinity”, `B3 (Smoc2)` is recorded as > 5 fold (Gpc6-YFP (UniProt Q9R087); FRET; 24 h, in cells; baseline: without SMOC2, higher = weaker binding).
Under “iron release rate”, `B4 (bfd 1-73 L5A/C43S)` is recorded as 0.044 min⁻¹ (bfrB 1-158 (Pseudomonas aeruginosa, UniProt Q9HY79); Fe2+-bipyridine formation; together with: NADPH 1 mM).
For `envC residues 20-end (Pseudomonas aeruginosa)`, the Vmax was 121 nmol/mg/min (ftsE 1-223 (Pseudomonas aeruginosa, UniProt A0A069QBX1); ATPase activity; peptidiscs; 37 °C).
For `B5 (ICAM1 28-485)`, the koff was 0.00075 s⁻¹ (IT4VAR13 1-2691 (Plasmodium falciparum, UniProt A3R6S0); SPR; Fc fusion; one-site fit).
`CCNO (Homo sapiens, UniProt P22674)` — result for “CDK2 kinase activity”: 2.5 fold (CDK2 (Homo sapiens, UniProt P24941); histone H1 phosphorylation; HEK cells, immunoprecipitates; baseline: empty vector, higher = more activity).
`ALDOA (Oryctolagus cuniculus, UniProt P00883)` has a ka1 of 33700 M⁻¹ s⁻¹ (TRAP C-terminal cytoplasmic tail (Plasmodium falciparum); SPR; two-state model).
With `RAN (UniProt P62826)` the Ran:GTP protected was 25% (XPO1 (Homo sapiens, UniProt O14980); RanGAP protection; 330 nM, together with: RanBP3 1 µM; higher = more protection).
For `B6 (fliP mature)`, “molecule per partner” read 5 (fliR (Salmonella enterica, UniProt P54702); cryo-EM).
With `B7 (protein 1-329 D182A)` the kcat was 0.5 min⁻¹ (mcmA; GTP hydrolysis; GAP activity, together with: MCM 2-fold).
`olig1 (Danio rerio)` — result for “mbp promoter activity”: 2 fold (sox10 (Danio rerio, UniProt Q90XD1); luciferase reporter; Cos-7; together with: Sox10; baseline: reporter plus Sox10 alone, higher = more activation).
Under “reduction of IFN-β reporter”, `TBK1 fragment K29A (Homo sapiens)` is recorded as 40% (STING1 (Homo sapiens, UniProt Q86WV6); IFN-β luciferase reporter; TBK1 KO HEK293T; together with: cGAMP; baseline: wild-type TBK1, higher = more reduction).
For `RHOA GTP-bound G14V (Homo sapiens)`, the fold activation was 5 fold (PLCE1 PH-C 837-2281 (Rattus norvegicus, UniProt Q99P84); PI hydrolysis, activator, IP-One assay; liposomes; together with: GTP; baseline: basal, higher = more activity).
`APOBEC3B (Homo sapiens, UniProt Q9UH17)` — result for “cMyc protein level”: 3.3 fold (PFDN5 (Homo sapiens, UniProt Q99471-1); immunoblot; HEK293T; without MG132; baseline: cMyc alone, higher = more cMyc).
The cell adhesion of `ITGAV/ITGB3 mature (Homo sapiens)` is reported as 406000 cpm (FN1 (Homo sapiens); adhesion to fibronectin; M21; baseline: no antibody or peptide, higher = more adhesion).
Under binding, `RPN2 (Saccharomyces cerevisiae, UniProt P32565)` is recorded as “binds” (20S proteasome core particle immobilized (Saccharomyces cerevisiae, UniProt P21243); pull-down).
For `Epo-Fc Fc fusion, hinge-CH2-CH3, glycosylated (Mus musculus)`, the serum level was > 5 fold (Fcgrt heavy chain (Mus musculus, UniProt Q61559); ELISA; intranasal, adult mice; baseline: Epo-Fc/IHH, higher = more absorption).
The IC50 of `HIP-4.2` is reported as 0.44 µM (HLA-DRA/HLA-DRB1*04:01 (Homo sapiens); competition with biotinylated peptide, competitor, competition binding assay).
`gpsI (Mycolicibacterium smegmatis, UniProt A0QVQ5)` — result for binding: “binds” (rne D694R/D738R (Mycolicibacterium smegmatis, UniProt A0R152); co-IP).
`B8 (protein 1-329 E183A)` gave a kcat of 0.3 min⁻¹ (mcmA; GTP hydrolysis; GAP activity, together with: MCM 2-fold).
With `ipaB (Shigella flexneri)` the relative binding was 150% (mxiH (Shigella flexneri, UniProt P0A223); co-purification, Western blot; Class IIa ipaD mutants; baseline: complemented strain, higher = more IpaB in needles).

Repeated from above:
With `B7 (protein 1-329 D182A)` the kcat was 0.5 min⁻¹ (mcmA; GTP hydrolysis; GAP activity, together with: MCM 2-fold).
Under “reduction of IFN-β reporter”, `TBK1 fragment K29A (Homo sapiens)` is recorded as 40% (STING1 (Homo sapiens, UniProt Q86WV6); IFN-β luciferase reporter; TBK1 KO HEK293T; together with: cGAMP; baseline: wild-type TBK1, higher = more reduction).
`B2 (DUSP23)`: binding “binds” (GCM1 167-349, pS269/pS275 (Homo sapiens, UniProt Q9NP62); pull-down; 30 min, pH 7.5, 30 °C, together with: PKA 0.5 U).
